Measurements of several laboratories.
Lines come from different studies, so protocols differ. Numbers after ± are the reported error. In brackets after ≈: the same amount, converted by molar mass.

SMILES	assay	system	setting	how to read	endpoint	value
CCC1=[N+]2N=C(c3ccccc3)C(=O)O[B-]2(c2ccccc2)Oc2cc(N(CC)CC)ccc21 (stereo not drawn)		toluene			molar absorption coefficient	49000 M⁻¹ cm⁻¹
C/C(N)=N/C(=N\S(=O)(=O)c1ccc(C(F)(F)F)cc1)N1C[C@H](c2ccccc2)C(c2ccc(Cl)cc2)=N1		beagle dog, plasma	oral, 6 mg/kg		bioavailability	44%
CC[C@H](C)[C@H](NC(=O)[C@H](CC(N)=O)NC(=O)[C@@H](N)CCSC)C(=O)N[C@@H](CCSC)C(=O)N[C@@H](CC(=O)O)C(=O)N[C@@H](Cc1ccccc1)C(=O)N[C@@H](CC(N)=O)C(=O)N[C@H](C(=O)N[C@@H](CCCCN)C(=O)N[C@@H](CCCCN)C(=O)N[C@@H](CC(C)C)C(=O)N[C@@H](C)C(=O)N[C@@H](C)C(=O)N[C@@H](CC(=O)O)C(=O)N[C@@H](C)C(=O)NCC(=O)N[C@H](C(=O)N[C@@H](Cc1c[nH]c2ccccc12)C(=O)N[C@@H](CC(C)C)C(=O)N[C@@H](CO)C(=O)N[C@@H](CCCNC(=N)N)C(=O)N[C@@H](C)C(=O)N[C@H](C(=O)N[C@@H](CCC(N)=O)C(=O)N[C@@H](Cc1ccccc1)C(=O)N[C@H](C(=O)N[C@@H](CCC(=O)O)C(=O)N[C@@H](CCC(=O)O)C(=O)N[C@@H](CCCCN)C(=O)N[C@@H](CC(C)C)C(=O)NCC(=O)N[C@@H](CCC(N)=O)C(=O)N[C@@H](C)C(N)=O)[C@@H](C)O)C(C)C)[C@@H](C)O)C(C)C	circular dichroism	~60% TFE			fractional helicity	80.9%
CC[C@H](C)[C@@H]1NC(=O)[C@H](Cc2ccc(O)cc2)NC(=O)CCCSC[C@@H](C(=O)N(CC(=O)N[C@@H](CC(C)C)C(=O)NCC(N)=O)Cc2ccc(F)cc2)NC(=O)[C@H](CC(N)=O)NC(=O)[C@H](CCC(N)=O)NC1=O		healthy human, plasma	intranasal, 200 µg every 3 h, after first dose		AUC(0-t)	0.085 ng·h/mL
C=C[C@]1(C)C[C@@H](OC(=O)CSc2ccc(NC(=O)c3ccco3)cc2)[C@]2(C)[C@H](C)CC[C@]3(CCC(=O)[C@H]32)[C@@H](C)[C@@H]1O		M. gallisepticum-infected chickens, plasma	intramuscular, 80 mg/kg single dose		Tmax	18 min
OCCCN1CC[C@@H]2C[C@H]1c1cc(-c3ccc(C(F)(F)F)cc3)ccc12		plasma	ip, concentration not given		Tmax	30 min
O=C1CCC(N2Cc3cc(C(=O)O)c(F)cc3C2=O)C(=O)N1 (stereo not drawn)		cynomolgus monkey, male	oral, 0.3 mg/kg parent drug, 0.5 h		plasma concentration	1.4 ± 1 ng/mL
CCCCN1C(=O)c2cccc3c(NCCCCCCN4CCOCC4)ccc(c23)C1=O		dioxane			molar extinction coefficient	12300 M⁻¹ cm⁻¹
CCC(CC)CNC(=N)NC(=N)NCCCCCCNC(=N)NC(=N)NCC(CC)CC	metabolic stability	dog, liver microsomes	2 µM		scaled CLint	1.83 mL/min/kg
CCC(C(=O)Nc1ccc(C(N)=O)c(F)c1)n1cc(OC)c(-c2cc(Cl)ccc2-n2cc(C(F)(F)F)nn2)cc1=O (stereo not drawn)		healthy male humans	50 mg, maximum intensity		mild adverse events	28.6%
Cc1ccc(OCC(=O)N(Cc2cccs2)c2ccn[nH]2)cc1		human plasma	750 ng/mL, 2 h, 37 °C, unit not given	reference: time zero	remaining compound	79.7
CC(C(=O)O)n1nc(Cn2cc3cc(OCC[18F])c(Cl)cc3n2)c2ccccc2c1=O (racemic)		rat, brain	1 h		tracer uptake	0.01 %ID/g
O=C(Nc1cnccc1-c1ccc([18F])cc1)c1ccnc(NC(=O)C2CC2)c1	ex vivo gamma counting	FVB/NJ mice, both sexes, caudate nucleus	intravenous, 120 min		mean SUV	0.06
CCCCN1C(=O)c2cccc3c(NCCCCCN4CCOCC4)ccc(c23)C1=O		dioxane			molar extinction coefficient	5600 M⁻¹ cm⁻¹
CCCC[C@H](OC(C)=O)c1ccccc1C(=O)O		beagle dogs, both sexes, whole blood	intravenous, 0.5 mg/kg single dose		AUC(0-inf)	409 ± 307 ng·h/mL
CC(=O)N([O-])CCCCCNC(=O)CCC(=O)N([O-])CCCCCNC(=O)CCC(=O)N([O-])CCCCCN.[89Zr+4]		mouse, kidney	24 h		tracer uptake	3.03 %ID/g
OC1(C(F)(F)F)CCN(c2nc(Nc3ccnc(C(F)(F)F)c3)nc(-c3cccc(C(F)(F)F)n3)n2)C1 (stereo not drawn)		Sprague-Dawley rat, both sexes, plasma	oral gavage, 5 mg/kg		AUC(0-inf)	6710 ± 935 ng·h/mL
CN([O-])C(=O)CN1CCNCCN(CC(=O)N(C)[O-])CC1.[89Zr+4]		mouse, lung	intravenous, 1 h		tracer uptake	0.48 %ID/g
Cc1cc(C)n(CCN(CCN)CCCCCCNC(=O)[C@@H](N)Cc2c[nH]cn2)n1.[99Tc+].[C-]#[O+].[C-]#[O+].[C-]#[O+]	RP-HPLC	BALB/c nude mice, A549 xenograft, urine and blood	4 h		intact radiocomplex	> 90%
C=C(NC(=O)c1csc(-c2nc3c(cc2O)-c2nc(cs2)C(=O)NC(C(C)O)C(=O)NC(=C(C)OC)c2nc(cs2)C(=O)NC2c4nc(cs4)C(=O)NC(COC(=O)c4c5c6c(cccc6n4O)COC(=O)C(OC4CC(C)(O)C(N(C)C)C(C)O4)C2OC5)c2nc-3cs2)n1)C(N)=O (stereo not drawn)		cynomolgus monkey, both sexes, plasma	intravenous infusion, 1.5 mg/kg twice daily, 0 to 30 h		terminal half-life	316 ± 37.8 min
COc1ccc2c(c1)CCn1c[n+]3c(c1-2)-c1ccc(OC)cc1CC3		female NSG mice, blood	6 mg/kg, day 14, 5 days per week		Lymphocytes	8.72 ± 12.4%
COc1cccc(OC)c1-c1cc(C(=O)NC2(C(=O)O)C3CC4CC(C3)CC2C4)nn1-c1ccc(C(=O)N(C)CCOCCN(C)C(=O)[C@H](CCCCNC(=O)[C@H](CC(C)C)NC(=O)C2OC2C(=O)O)NC(=O)CN2CCN(CC(=O)[O-])CCN(CC(=O)[O-])CCN(CC(=O)[O-])CC2)cc1C(C)C.[177Lu+3] (mixture of isomers)		mouse, HT-29 xenograft	4 h post injection, biodistribution	reference: tumour over brain uptake	tumour-to-brain ratio	36
Nc1nc(-c2ccccc2)nc2[nH]nc(Nc3ccc(Cl)cc3)c12		plasma	time not given, plasma protein binding		recovery	61%
CCCCN1C(=O)c2cccc3c(NCCN4CCOCC4)ccc(c23)C1=O		water	pH 6.0		molar extinction coefficient	16000 M⁻¹ cm⁻¹
COCC1CN(C2CCN(c3cc(OC)c(Nc4ncc(Br)c(Nc5ccc6c(c5P(C)(C)=O)OCCO6)n4)cc3C)CC2)C1		EGFR-mutant NSCLC patients, plasma	oral, 90 mg multiple doses, median		Tmax at steady state	239 min
O=C1NC2(CC2)COc2ncc(F)cc2[C@H]2COCCN2c2ccn3ncc1c3n2	bone marrow micronucleus test	NIH mice, male	oral, 60 mg/kg/day, 3 days		PCE/(PCE+NCE) ratio	0.396 ± 0.053
O=c1c2ccccc2[se]n1CCCCCCn1[se]c2ccccc2c1=O	shake-flask, RP-HPLC	Tween 20	24 h, 25 °C		solubility	1060 ± 20 µg/mL (≈ 2220 µM)
CC(C)[C@H](NC(=O)[C@H](Cc1c[nH]c2ccccc12)NC(=O)[C@H](CCCNC(=N)N)NC(=O)[C@H](CCCNC(=N)N)NC(=O)[C@@H](NC(=O)[C@@H](NC(=O)[C@H](CCCNC(=N)N)NC(=O)[C@@H](NC(=O)[C@@H](NC(=O)[C@H](CCCNC(=N)N)NC(=O)[C@H](CCCNC(=N)N)NC(=O)[C@@H](NC(=O)[C@H](Cc1c[nH]c2ccccc12)NC(=O)[C@H](CCCNC(=N)N)NC(=O)[C@H](CCCNC(=N)N)NC(=O)[C@@H](NC(=O)[C@H](CCCNC(=N)N)NC(=O)[C@H](CCCNC(=N)N)NC(=O)[C@@H](NC(=O)[C@H](Cc1c[nH]c2ccccc12)NC(=O)[C@H](CCCNC(=N)N)NC(=O)[C@@H](N)CCCNC(=N)N)C(C)C)C(C)C)C(C)C)C(C)C)C(C)C)C(C)C)C(C)C)C(=O)N[C@@H](CCCNC(=N)N)C(=O)N[C@@H](CCCNC(=N)N)C(=O)O		CD1 mouse, urine	intravenous, 15 mg/kg, 6 h, [14C]-labelled compound		glucose	78 mg/dL
CCCCN1C(=O)c2cccc3c(NCCCCCCCCCCN4CCOCC4)ccc(c23)C1=O		chloroform			fluorescence quantum yield	0.91
C=CC(=O)Nc1cc(Nc2nccc(-c3c[nH]c4ccccc34)n2)c(OC)cc1N(C)CCN(C)C	storage stability	human dried blood spot	10 d, on ice, LLOQ level		recovery	68.9%

Repeated from above:
SMILES	assay	system	setting	how to read	endpoint	value
CCCCN1C(=O)c2cccc3c(NCCCCCCN4CCOCC4)ccc(c23)C1=O		dioxane			molar extinction coefficient	12300 M⁻¹ cm⁻¹
O=C(Nc1cnccc1-c1ccc([18F])cc1)c1ccnc(NC(=O)C2CC2)c1	ex vivo gamma counting	FVB/NJ mice, both sexes, caudate nucleus	intravenous, 120 min		mean SUV	0.06
CCCCN1C(=O)c2cccc3c(NCCCCCCCCCCN4CCOCC4)ccc(c23)C1=O		chloroform			fluorescence quantum yield	0.91
